Published values from different studies.
Several values in a cell are separate wells, animals, samples, runs or records. Numbers after ± are the reported error.

Structure (SMILES) | host | sample | route | dose | notes | Tmax
CN[C@H](CC(C)C)C(=O)N[C@H]1C(=O)N[C@@H](CC(N)=O)C(=O)N[C@H]2C(=N)N[C@H]3C(=O)N[C@H](C(=O)N[C@H](C(=O)NCCC[N+](C)(C)C)c4cc(O)cc(O)c4-c4cc3ccc4O)[C@H](O)c3ccc(c(Cl)c3)Oc3cc2cc(c3O[C@@H]2O[C@H](CO)[C@@H](O)[C@H](O)[C@H]2O[C@H]2C[C@](C)(NCc3ccc(-c4ccc(Cl)cc4)cc3)[C@H](O)[C@H](C)O2)Oc2ccc(cc2Cl)[C@H]1O | mouse |  | intravenous | 10 mg/kg |  | 4.8 min
Cc1ncsc1-c1ccc(CNC(=O)[C@@H]2C[C@@H](O)CN2C(=O)[C@@H](NC(=O)COCC(C)(COCCOCCOCCNC(=O)C[C@@H]2N=C(c3ccc(Cl)cc3)c3c(sc(C)c3C)-n3c(C)nnc32)COCCOCCOCCNC(=O)C[C@@H]2N=C(c3ccc(Cl)cc3)c3c(sc(C)c3C)-n3c(C)nnc32)C(C)(C)C)cc1 | C57BL/6 mouse male | plasma | subcutaneous | 5 mg/kg |  | 240 min
Cc1ccc(=O)n(-c2ccc(O)cc2)c1 | BALB/c mouse | plasma | oral | 1.0 mmol/kg |  | 30 min
CN[C@H](CC(C)C)C(=O)N[C@H]1C(=O)N[C@@H](CC(N)=O)C(=O)N[C@H]2CN[C@H]3C(=O)N[C@H](C(=O)N[C@H](C(=O)NCCCNC(=N)N)c4cc(O)cc(O)c4-c4cc3ccc4O)[C@H](O)c3ccc(c(Cl)c3)Oc3cc2cc(c3O[C@@H]2O[C@H](CO)[C@@H](O)[C@H](O)[C@H]2O[C@H]2C[C@](C)(NCc3ccc(-c4ccc(Cl)cc4)cc3)[C@H](O)[C@H](C)O2)Oc2ccc(cc2Cl)[C@H]1O | mouse |  | intravenous | 50 mg/kg |  | 8.4 min
Cc1[nH]nc2c1N=C(c1ccccc1Cl)c1cnc(N3CCOCC3)cc1N2 | nude mouse HCC1806 xenograft | plasma | oral | 5 mg/kg once daily |  | 60 min
O=C(NS(=O)(=O)c1cccs1)c1cc2ccccc2n1Cc1ccc(Br)c2ccccc12 | mouse | plasma | oral | 2 mg/kg |  | 25.2 min
Cc1ccc(OCC(=O)N(Cc2cccs2)c2ccn[nH]2)cc1 | male CD-1 mouse | plasma | oral | 30 mg/kg |  | 15 min
CC[C@H](C)[C@H](NC(=O)[C@H](CCCNC(=N)N)NC(=O)[C@H](Cc1c[nH]cn1)NC(=O)[C@@H](N)[C@@H](C)O)C(=O)N[C@@H](CC(C)C)C(=O)N[C@@H](CCCNC(=N)N)C(=O)N[C@@H](CCCNC(=N)N)C(=O)N[C@@H](CC(C)C)C(=O)N[C@@H](Cc1ccccc1)C(=O)N[C@@H](CC(N)=O)C(=O)N[C@@H](CC(C)C)C(=O)N[C@@H](CS)C(N)=O | male C57BL/6J mouse | plasma | intraperitoneal |  |  | 1 min
O=S(=O)(N[C@H]1CCC[C@@H](N2c3ccccc3CCc3ccccc32)[C@@H]1O)c1ccc(OC(F)(F)F)cc1 | mouse | plasma | oral | 100 mg/kg | solution | 120 min
C/C(N)=N/C(=N\S(=O)(=O)c1ccc(C(F)(F)F)cc1)N1C[C@H](c2ccccc2)C(c2ccc(Cl)cc2)=N1 | C57BL/6 mouse male | adipose tissue | intravenous | 10 mg/kg |  | 120 min
O=C1CCC(N2Cc3cc(C(=O)O)c(F)cc3C2=O)C(=O)N1 (stereo not drawn) | male CD-1 mouse | plasma | oral | 10 mg/kg of parent drug |  | 54 ± 12 min
Cc1nn(-c2nc3c(F)cc(F)cc3s2)c(O)c1C(c1ccc(C(F)(F)F)cc1)c1c(C)nn(-c2nc3c(F)cc(F)cc3s2)c1O | ICR mouse | plasma | intravenous | 5 mg/kg |  | 15 min and 45 min and 3 min

Excerpt of the above:
Structure (SMILES) | host | sample | route | dose | notes | Tmax
CC[C@H](C)[C@H](NC(=O)[C@H](CCCNC(=N)N)NC(=O)[C@H](Cc1c[nH]cn1)NC(=O)[C@@H](N)[C@@H](C)O)C(=O)N[C@@H](CC(C)C)C(=O)N[C@@H](CCCNC(=N)N)C(=O)N[C@@H](CCCNC(=N)N)C(=O)N[C@@H](CC(C)C)C(=O)N[C@@H](Cc1ccccc1)C(=O)N[C@@H](CC(N)=O)C(=O)N[C@@H](CC(C)C)C(=O)N[C@@H](CS)C(N)=O | male C57BL/6J mouse | plasma | intraperitoneal |  |  | 1 min
